Published values of several laboratories.
Protocols differ between the studies behind these lines. ± marks the error that the study gave.

Structure (SMILES) | tested on | assay | test system | setting | quantity | result
CC[C@H](C)[C@H](NC(=O)[C@H](CCCNC(=N)N)NC(=O)[C@H](CO)NC(=O)[C@H](Cc1ccc(O)cc1)NC(=O)[C@@H](NC(=O)[C@@H](NC(=O)[C@H](C)NC(=O)CNC(=O)[C@H](CCCCN)NC(=O)[C@H](CCCCN)NC(=O)CCNC(=O)CCCCCNC(=O)[C@H](CCCNC(=N)N)NC(=O)CCCCCNC(=O)[C@H](CCCNC(=N)N)NC(=O)[C@H](CCCNC(=N)N)NC(=O)CCCCCNC(=O)[C@H](CCCNC(=N)N)NC(=O)[C@H](CCCNC(=N)N)NC(=O)CCCCCNC(=O)[C@H](CCCNC(=N)N)NC(=O)[C@H](CCCNC(=N)N)NC(=O)CCCCCNC(=O)[C@@H](N)CCCNC(=N)N)C(C)C)[C@@H](C)O)C(=O)N[C@@H](CO)C(=O)NCC(=O)N[C@@H](CCC(N)=O)C(=O)N[C@@H](Cc1ccc(O)cc1)C(=O)N[C@@H](CCCCN)C(=O)O | Escherichia coli | broth microdilution | ATCC 25922, Mueller-Hinton broth | – | MIC | 6 µM
[O-][N+]1=C(Cc2ccccc2)C2=NCCCN2c2ccccc21 | Fusobacterium nucleatum | – | – | – | MIC | 0.5 to 4 µg/mL
CCCCCC[N+](C)(C)CCCCCCCCOc1cc(OCCCCCCCC[N+](C)(C)CCCCCC)cc(OCCCCCCCC[N+](C)(C)CCCCCC)c1.[Br-].[Br-].[Br-] | eight bacterial strains | – | – | – | MIC | ≤ 2 µM
CC(C)CCCCCCCCC/C=C/C(=O)N[C@@H](CC(N)=O)C(=O)N[C@H]1CNC(=O)[C@@H]2CCCN2C(=O)[C@H](C(C)C)NC(=O)[C@@H](CN)NC(=O)CNC(=O)[C@H](CC(=O)O)NC(=O)CNC(=O)[C@H](CC(=O)O)NC(=O)[C@H](CC(=O)O)NC(=O)[C@H]2CCCCN2C1=O | Staphylococcus simulans | broth microdilution | 22, Mueller-Hinton broth, Mg2+ 10 mg/L | 16 h, 30 °C, with: Ca2+ 5 mM | MIC | 4 µg/mL
CCCCCCCC(=O)NCCCC[C@H](NC(=O)CCCCCCC)C(=O)N[C@@H](CCCCNC(=O)CCCCCCC)C(=O)NCC(=O)NCC(=O)NCC(=O)N[C@@H](CS)C(=O)N[C@@H](CCCNC(=N)N)C(=O)N[C@@H](CCCCN)C(=O)N1CCC[C@H]1C(=O)N[C@@H](CS)C(=O)N[C@@H](CCCNC(=N)N)C(=O)N[C@@H](CCCCN)C(=O)N1CCC[C@H]1C(=O)N[C@@H](CS)C(=O)N[C@@H](CCCNC(=N)N)C(=O)N[C@@H](CCCCN)C(=O)N1CCC[C@H]1C(N)=O | Candida albicans | broth microdilution | 17546, RPMI-1640 | 48 h, 30 °C | MIC | 16 µM
CC(C)CCCCCCCCC/C=C/C(=O)N[C@@H](CC(=O)O)C(=O)N[C@H]1CNC(=O)[C@@H]2CCCN2C(=O)[C@H](C(C)C)NC(=O)[C@@H](CN)NC(=O)CNC(=O)[C@H](CC(=O)O)NC(=O)CNC(=O)[C@H](CC(=O)O)NC(=O)[C@H](CC(=O)O)NC(=O)[C@H]2CCCCN2C1=O | Staphylococcus aureus | broth microdilution | BR-VRSA strain 880, Mueller-Hinton broth, Mg2+ 10 mg/L | 16 h, with: Ca2+ 2.5 mM | MIC | 4 µg/mL
CCCCCC(=O)NCCCC[C@H](NC(=O)CCCCC)C(=O)N[C@@H](CCCCNC(=O)CCCCC)C(=O)NCC(=O)NCC(=O)NCC(=O)N[C@@H](CS)C(=O)N[C@@H](CCCNC(=N)N)C(=O)N[C@@H](CCCCN)C(=O)N1CCC[C@H]1C(=O)N[C@@H](CS)C(=O)N[C@@H](CCCNC(=N)N)C(=O)N[C@@H](CCCCN)C(=O)N1CCC[C@H]1C(N)=O | Candida albicans | broth microdilution | 14936, RPMI-1640 | 48 h, 30 °C | MIC | 8 µM
CC[C@H](C)[C@H](N)C(=O)N[C@@H](CCCNC(=N)N)C(=O)N[C@H](C(=O)N[C@@H](Cc1c[nH]c2ccccc12)C(=O)N[C@@H](Cc1ccccc1)C(=O)N[C@H](C(=O)N[C@@H](CCCCN)C(=O)N[C@H](C(=O)N[C@@H](CCCNC(=N)N)C(=O)N[C@@H](CCCCN)C(=O)N[C@@H](CCSC)C(=O)N[C@@H](CCCCN)C(=O)N[C@@H](C)C(=O)N[C@H](C(=O)N[C@@H](Cc1ccc(O)cc1)C(=O)N[C@@H](Cc1c[nH]cn1)C(N)=O)[C@@H](C)CC)C(C)C)[C@@H](C)CC)C(C)C | Listeria monocytogenes | broth dilution | KCTC 13064 | – | MIC | 50 µM
CCCCCCCC(=O)NCCCC[C@H](NC(=O)CCCCCCC)C(=O)N[C@@H](CCCCNC(=O)CCCCCCC)C(=O)NCC(=O)NCC(=O)NCC(=O)N[C@@H](CS)C(=O)N[C@@H](CCCNC(=N)N)C(=O)N[C@@H](CCCCN)C(=O)N1CCC[C@H]1C(=O)N[C@@H](CS)C(=O)N[C@@H](CCCNC(=N)N)C(=O)N[C@@H](CCCCN)C(=O)N1CCC[C@H]1C(=O)N[C@@H](CS)C(=O)N[C@@H](CCCNC(=N)N)C(=O)N[C@@H](CCCCN)C(=O)N1CCC[C@H]1C(=O)N[C@@H](CS)C(=O)N[C@@H](CCCNC(=N)N)C(=O)N[C@@H](CCCCN)C(=O)N1CCC[C@H]1C(N)=O | Candida albicans | broth microdilution | SP 3902, RPMI-1640 | 48 h, 30 °C | MIC | 32 µM
CN[C@H](CC(C)C)C(=O)N[C@H]1C(=O)N[C@@H](CC(N)=O)C(=O)N[C@H]2C(=O)N[C@H]3C(=O)N[C@H](C(=O)N[C@H](C(=O)NCc4cn(CC(=O)N[C@H](C(=O)N[C@@H](CCN)C(=O)N[C@H]5CCNC(=O)[C@H]([C@@H](C)O)NC(=O)[C@H](CCN)NC(=O)[C@H](CCN)NC(=O)[C@H](CC(C)C)NC(=O)[C@@H](CC(C)C)NC(=O)[C@H](CCN)NC5=O)[C@@H](C)O)nn4)c4cc(O)cc(O)c4-c4cc3ccc4O)[C@H](O)c3ccc(c(Cl)c3)Oc3cc2cc(c3O[C@@H]2O[C@H](CO)[C@@H](O)[C@H](O)[C@H]2O[C@H]2C[C@](C)(N)[C@H](O)[C@H](C)O2)Oc2ccc(cc2Cl)[C@H]1O | Staphylococcus simulans | broth microdilution | 22, cation-adjusted Mueller-Hinton broth | – | MIC | ≤ 0.003 µM
CC(=O)N[C@@H](CC(C)C)C(=O)N[C@H]1CSSC[C@@H](C(=O)N2CCC[C@H]2C(N)=O)NC(=O)[C@H]([C@@H](C)O)NC(=O)[C@H](C(C)C)NC(=O)[C@H]([C@@H](C)O)NC(=O)CNC(=O)[C@H](CC(C)C)NC(=O)[C@H](Cc2ccccc2)NC(=O)[C@H](Cc2ccc(O)cc2)NC(=O)[C@H](CC(C)C)NC(=O)[C@H](CCCCN)NC(=O)[C@H](Cc2ccccc2)NC(=O)[C@H](CCCNC(=N)N)NC(=O)[C@H](CCC(N)=O)NC(=O)[C@H](CC(C)C)NC(=O)[C@H](CCCCN)NC(=O)[C@@H]2CCCN2C(=O)[C@H](CCCCN)NC(=O)[C@H](C(C)C)NC(=O)[C@H](CCCCN)NC(=O)[C@H](Cc2ccc(O)cc2)NC(=O)[C@H]([C@@H](C)O)NC1=O | Aeromonas hydrophila | broth dilution | – | 24 h | MIC | 1.25 to 2.5 µM
CCCCCCCC(=O)NCCCC[C@H](NC(=O)CCCCCCC)C(=O)N[C@@H](CCCCNC(=O)CCCCCCC)C(=O)NCC(=O)NCC(=O)NCC(=O)N[C@@H](CS)C(=O)N[C@@H](CCCNC(=N)N)C(=O)N[C@@H](CCCCN)C(=O)N1CCC[C@H]1C(=O)N[C@@H](CS)C(=O)N[C@@H](CCCNC(=N)N)C(=O)N[C@@H](CCCCN)C(=O)N1CCC[C@H]1C(N)=O | Candida albicans | broth microdilution | 14936, RPMI-1640 | 48 h, 30 °C | MIC | 4 µM
[O-][N+]1=C(c2ccccc2)C2=NCCCN2c2ncccc21 | Fusobacterium nucleatum | – | – | – | MIC | 0.06 to 0.25 µg/mL
O=C1NC2(CC2)COc2ncc(F)cc2[C@H]2COCCN2c2ccn3ncc1c3n2 | – | – | Sprague-Dawley rat, male, brain | oral, 20 mg/kg/day, 4 weeks, end of treatment | organ-to-body weight ratio | 0.502 ± 0.052%
CC1(C)S[C@@H]2[C@H](NC(=O)[C@H](NC(=O)C3=C(O)C(c4ccccc4F)NC3=O)c3ccccc3)C(=O)N2[C@H]1C(=O)O (stereo partly drawn) | Escherichia coli | broth microdilution | Keio mutant JW5086-3 | 18 h, ferrienterobactin permease gene | MIC | 25 µg/mL
